Results from different studies.
Lines come from different studies, so protocols differ. “And” joins repeats or separate records; there may be more than shown. ± gives the spread as reported.
Sequence of UniProt Q64663 (whole entry, unmodified, looked up): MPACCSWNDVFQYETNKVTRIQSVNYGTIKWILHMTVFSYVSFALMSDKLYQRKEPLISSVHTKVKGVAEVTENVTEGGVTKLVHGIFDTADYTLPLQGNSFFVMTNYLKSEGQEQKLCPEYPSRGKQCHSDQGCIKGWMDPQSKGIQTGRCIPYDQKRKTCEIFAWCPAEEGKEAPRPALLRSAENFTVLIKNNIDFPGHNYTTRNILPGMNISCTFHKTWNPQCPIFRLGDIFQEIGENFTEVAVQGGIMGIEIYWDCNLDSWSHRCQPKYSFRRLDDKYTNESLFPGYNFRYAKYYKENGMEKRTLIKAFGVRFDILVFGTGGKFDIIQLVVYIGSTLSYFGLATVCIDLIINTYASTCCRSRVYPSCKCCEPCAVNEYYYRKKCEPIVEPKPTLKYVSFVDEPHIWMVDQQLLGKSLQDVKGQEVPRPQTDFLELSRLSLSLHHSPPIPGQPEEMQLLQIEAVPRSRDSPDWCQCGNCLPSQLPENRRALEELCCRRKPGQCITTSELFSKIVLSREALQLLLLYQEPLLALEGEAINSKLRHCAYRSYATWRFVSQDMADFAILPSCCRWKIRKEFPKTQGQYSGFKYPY

| Molecule | tested on | assay | system | setting | how to read | measurement | result |
| --- | --- | --- | --- | --- | --- | --- | --- |
| human retinal dehydrogenase 1 |  | co-immunoprecipitation | human RBC cytosol | DSSO crosslinker, unit not given, together with: Band 3 peptide 1-56 bait | baseline: negative control | co-IP enrichment | 5140 |
| BzATP | P2X purinoceptor 7 (P2rx7, Rattus norvegicus, UniProt Q64663, I214A) | ion current, agonist, two-electrode voltage clamp | Xenopus oocytes | 1.2 µM |  | normalized current | 0.182 and 0.176 and 0.129 |
| GLFQWISQA | Jurkat T cells expressing 1G4 TCR | NFAT-eGFP reporter, fluorescence microscopy | peptide | concentration not given, HLA-A*02:01 NY-ESO system |  | reporter activation | 0.654% |
| human complement C3 |  | co-immunoprecipitation | human RBC membrane | DMTMM crosslinker, unit not given, together with: Band 3 peptide 1-56 bait | baseline: negative control | co-IP enrichment | 0 |
| GSGAGRETEV | human MAGI1-3/6 PDZ construct (MBP fusion) | surface plasmon resonance | peptide | concentration not given | higher = stronger binding | normalised SPR binding response | 13.7 normalised RU |
| UBE2I |  | co-immunoprecipitation | human RBC membrane | no crosslinker, unit not given, together with: Band 3 peptide 1-56 bait | baseline: negative control | co-IP enrichment | 0 |
| Peginesatide | UT7/EPO | tyrosine phosphorylation, LC-MS/MS phosphoproteomics, GluC, measured: STAT1 tyrosine 701 |  | 10 nM, 15 min, together with: 10 U/mL EPO | baseline: vehicle | phosphorylation level | 5.2 fold |
| DNA 1 TGGGTGGGTAGGGTGGGTAGGGGAGGAT / DNA 2 ATCCTCCCCTA (DNA; intramolecular parallel G4, 5' overhang, 11-bp duplex) | REV1 330-833 D700N (Homo sapiens, UniProt Q9UBZ9) | FP | folded DNA | KCl 100 mM |  | Kd | 3 ± 0.9 nM |
| ILEAAKSIAAATSALVKAASAAQRE | vinculin head domain Vd1 | complex rupture, AFM single-molecule force spectroscopy | peptide | double traces, C-terminal pulling, 800 nm/s |  | mean rupture force | 44.8 pN |
| ALTQWVTEN | Jurkat T cells expressing 1G4 TCR | NFAT-eGFP reporter, fluorescence microscopy | peptide | concentration not given, HLA-A*02:01 NY-ESO system |  | reporter activation | 0.0158% |
| epoetin alfa | UT7/EPO | microarray, measured: NFKBIZ (probe 223218_s_at) |  | 5 U/mL, 90 min, together with: SCF 10 nM | baseline: vehicle | mRNA level | 2.4 fold |
| human alpha-1-acid glycoprotein 1 |  | co-immunoprecipitation | human plasma | no crosslinker, unit not given, together with: Band 3 peptide 1-56 bait | baseline: negative control | co-IP enrichment | 0 |
| cotadutide |  | metabolomics, measured: hepatic 1-arachidonylglycerol (20:4) | ob/ob mice on AMLN diet, NASH model, liver | dose not given |  | metabolite level | 0.6 ± 0.12 scaled intensity |
| SEC11A |  | co-immunoprecipitation | human RBC membrane | DSSO crosslinker, unit not given, together with: Band 3 peptide 1-56 bait | baseline: negative control | co-IP enrichment | 37.1 |
| Polymyxin B | Staphylococcus aureus | DiSC3(5) fluorescence |  | concentration not given, 78 min | higher = more depolarisation | membrane depolarisation | 511 a.u. and 562 a.u. and 442 a.u. |
| GLLQWVSMV | Jurkat T cells expressing 1G4 TCR | NFAT-eGFP reporter, fluorescence microscopy | peptide | concentration not given, HLA-A*02:01 NY-ESO system |  | reporter activation | 0.00942% |
| milbemycin oxime | Saccharomyces cerevisiae | cell growth | Pdr5 deleted, Cdr1 overexpressed | 2^-5.966 µg/mL, together with: fluconazole 10 µg/mL |  | OD600 | 0.128 and 0.141 |
| USP14 |  | co-immunoprecipitation | human RBC membrane | DMTMM crosslinker, unit not given, together with: Band 3 peptide 1-56 bait | baseline: negative control | co-IP enrichment | 32.4 |
| SEKHFRETEV | human MAGI1-3/6 PDZ construct (MBP fusion) | automated holdup | peptide, purified PDZ protein | concentration not given, unit not given | baseline: biotin control resin, higher = stronger binding | binding intensity | 0.133 |
| SLLQWISQV | Jurkat T cells expressing 1G4 TCR | NFAT-eGFP reporter, fluorescence microscopy | peptide | concentration not given, HLA-A*02:01 NY-ESO system |  | reporter activation | 26.7% |
| insulin degludec |  |  | human | subcutaneous, 0.4 IU/kg, 2 FC level, single dose, reference formulation |  | AUClast | 611 ± 65 ng·h/mL |
| GLGTWISQV | Jurkat T cells expressing 1G4 TCR | NFAT-eGFP reporter, fluorescence microscopy | peptide | concentration not given, HLA-A*02:01 NY-ESO system |  | reporter activation | 3.27% |

| Molecule | tested on | assay | system | setting | how to read | measurement | result |
| --- | --- | --- | --- | --- | --- | --- | --- |
| FNA / CGLSGLGVA-NH2 ([18F]FNA-labelled, C-amide) |  | gamma counting | peptide, healthy mice, femur (bone and marrow) | 60 min |  | tissue uptake | 0.38 %ID/g |
| human desmoplakin |  | co-immunoprecipitation | human RBC membrane | DMTMM crosslinker, unit not given, together with: Band 3 peptide 1-56 bait | baseline: negative control | co-IP enrichment | 0 |
| KDECVIATEV | human MAGI1-2/6 PDZ construct (MBP fusion) | surface plasmon resonance | peptide | concentration not given | higher = stronger binding | normalised SPR binding response | 0 normalised RU |
| colistin | Pseudomonas aeruginosa | broth microdilution | clinical isolate RKI-No_479/15 |  |  | MIC | 1 mg/L |
| caspofungin |  |  | adult ICU patients, mITT, serum | dose not given, day 14 |  | magnesium | 0.7 mmol/L |
| human alpha-enolase |  | co-immunoprecipitation | human RBC cytosol | DSSO crosslinker, unit not given, together with: Band 3 peptide 1-56 bait | baseline: negative control | co-IP enrichment | 210 |
| ALMQWVSQV | Jurkat T cells expressing 1G4 TCR | NFAT-eGFP reporter, flow cytometry | peptide | concentration not given, HLA-A*02:01 NY-ESO system |  | reporter activation | 58.7% |
| QLMPFGSLL | HLA class I histocompatibility antigen, A alpha chain, allele A*02:01 (Homo sapiens, UniProt P04439) | complex stability, off-rate | peptide | 37 °C |  | half-life of peptide-HLA complex | 85.7 h |
| QDEKVKESYV | human MAGI1-2/6 PDZ construct (MBP fusion) | automated holdup | peptide, crude extract | concentration not given, uncorrected, unit not given | baseline: biotin control resin, higher = stronger binding | binding intensity | 0.365 |
| ACEQNPIYWARYADWLFTTPLLLLDLALLVDADEGT |  | ex vivo fluorescence imaging | peptide, BALB/c mice, 4T1 tumour-bearing, kidney | intravenous, 5 nmol, 4 h post-injection | higher = more uptake | mean fluorescence intensity | 1100 ± 254 a.u. |
| VLAQWIPRL | Jurkat T cells expressing 1G4 TCR | NFAT-eGFP reporter, flow cytometry | peptide | concentration not given, HLA-A*02:01 NY-ESO system |  | reporter activation | 0.19% |
| MTVCNASQRQAHAQATAVSL | PANC-1 | phage binding | peptide |  | baseline: targeting over control phage | selectivity ratio | 0.66 ± 0.33 |
| ALLQWVDVV | Jurkat T cells expressing 1G4 TCR | NFAT-eGFP reporter, fluorescence microscopy | peptide | concentration not given, HLA-A*02:01 NY-ESO system |  | reporter activation | 0.00668% |
| EKPIDSETKM | human MAGI1-3/6 PDZ construct (MBP fusion) | automated holdup | peptide, crude extract | concentration not given, uncorrected, unit not given | baseline: biotin control resin, higher = stronger binding | binding intensity | 0.728 |
| insulin aspart |  | ELISA after PEG precipitation, measured: free insulin aspart | human, type 1 diabetes, serum | subcutaneous, dose not given, least squares mean, single dose |  | time to early 50 % Cmax | 26.2 min |
| GSGAGIESNV | human MAGI1-3/6 PDZ construct (MBP fusion) | automated holdup | peptide, crude extract | concentration not given, uncorrected, unit not given | baseline: biotin control resin, higher = stronger binding | binding intensity | 0.715 |
| 11-deoxycorticosterone | human CYP11B2 | stopped-flow kinetic modelling |  | Model, branched, 4-state, CS, together with: no adrenodoxin |  | Kd | 4500 nM |
| GSGAGHETIV | human SCRIB PDZ3-4 tandem (MBP fusion) | automated holdup | peptide, crude extract | concentration not given, uncorrected, unit not given | baseline: biotin control resin, higher = stronger binding | binding intensity | 0.457 |
| ACEEQNPWARYLEWLFPTETLLLEL |  | ex vivo fluorescence imaging | peptide, BALB/c mice, 4T1 tumour-bearing, kidney | intravenous, 5 nmol, 48 h post-injection | higher = more uptake | mean fluorescence intensity | 690 ± 260 a.u. |
| IMQLMPFGC | HLA class I histocompatibility antigen, A alpha chain, allele A*24:02 (Homo sapiens, UniProt P04439) | conformational ELISA | peptide | concentration not given | baseline: positive control peptide, direction not given | binding score | 7.6% |
| GSGAGKESYV | human SCRIB PDZ3-4 tandem (MBP fusion) | automated holdup | peptide, purified PDZ protein | concentration not given, unit not given | baseline: biotin control resin, higher = stronger binding | binding intensity | 0.552 |

Some of these lines once more:
| Molecule | tested on | assay | system | setting | how to read | measurement | result |
| --- | --- | --- | --- | --- | --- | --- | --- |
| EKPIDSETKM | human MAGI1-3/6 PDZ construct (MBP fusion) | automated holdup | peptide, crude extract | concentration not given, uncorrected, unit not given | baseline: biotin control resin, higher = stronger binding | binding intensity | 0.728 |
| QLMPFGSLL | HLA class I histocompatibility antigen, A alpha chain, allele A*02:01 (Homo sapiens, UniProt P04439) | complex stability, off-rate | peptide | 37 °C |  | half-life of peptide-HLA complex | 85.7 h |
| ALMQWVSQV | Jurkat T cells expressing 1G4 TCR | NFAT-eGFP reporter, flow cytometry | peptide | concentration not given, HLA-A*02:01 NY-ESO system |  | reporter activation | 58.7% |
| ILEAAKSIAAATSALVKAASAAQRE | vinculin head domain Vd1 | complex rupture, AFM single-molecule force spectroscopy | peptide | double traces, C-terminal pulling, 800 nm/s |  | mean rupture force | 44.8 pN |
| human alpha-enolase |  | co-immunoprecipitation | human RBC cytosol | DSSO crosslinker, unit not given, together with: Band 3 peptide 1-56 bait | baseline: negative control | co-IP enrichment | 210 |
| SEC11A |  | co-immunoprecipitation | human RBC membrane | DSSO crosslinker, unit not given, together with: Band 3 peptide 1-56 bait | baseline: negative control | co-IP enrichment | 37.1 |
| DNA 1 TGGGTGGGTAGGGTGGGTAGGGGAGGAT / DNA 2 ATCCTCCCCTA (DNA; intramolecular parallel G4, 5' overhang, 11-bp duplex) | REV1 330-833 D700N (Homo sapiens, UniProt Q9UBZ9) | FP | folded DNA | KCl 100 mM |  | Kd | 3 ± 0.9 nM |
